Measurements from different studies.
Lines come from different studies, so protocols differ. ± gives the spread as reported.

| Structure (SMILES) | organism | test | system | conditions | IC50 |
| --- | --- | --- | --- | --- | --- |
| CC[C@H](C)[C@H](NC(=O)[C@@H](NC(=O)[C@H](CCC(N)=O)NC(=O)[C@@H](N)CO)C(C)C)C(=O)N[C@@H](CO)C(=O)N[C@@H](CC(N)=O)C(=O)N1CCC[C@H]1C(=O)N[C@@H](Cc1ccc(O)cc1)C(=O)N[C@@H](Cc1ccc(O)cc1)C(=O)N1CCC[C@H]1C(=O)N[C@@H](Cc1ccccc1)C(=O)N[C@@H](Cc1ccc(O)cc1)C(=O)N[C@@H](Cc1ccc(O)cc1)C(=O)N[C@@H](CO)C(=O)O | Marburg virus | pseudovirus infection | – | pseudotyped virus | 69.4 µM |
| CC(=O)[C@]1(O)Cc2c(O)c3c(c(O)c2[C@@H](O[C@H]2C[C@H](N)[C@H](O)[C@H](C)O2)C1)C(=O)c1ccccc1C3=O | SARS-CoV-2 NLuc reporter | viral replication | Calu-3 | 16 h compound pretreatment | 0.006 µM |
| O=C(O)c1ncn(CCO)c1C(=O)O | Severe acute respiratory syndrome coronavirus | viral replication | Vero | 48 h | 28 µg/mL |
| COc1cccc2c1C(=O)c1c(O)c3c(c(O)c1C2=O)C[C@@](O)(C(C)=O)C[C@@H]3O[C@H]1C[C@H](N)[C@H](O)[C@H](C)O1 | SARS-CoV-2 NLuc reporter | viral replication | Calu-3 | 16 h compound pretreatment | 0.084 µM |
| Cn1cnc(Cn2c(=O)[nH]/c(=N\c3cc4cn(C)nc4cc3Cl)n(Cc3cc(F)c(F)cc3F)c2=O)n1 | Betacoronavirus 1 | viral replication, qPCR | OC43, human | – | 0.09 µM |
| C[C@]12C=CC(=O)C=C1CC[C@@H]1[C@@H]2[C@@H](O)C[C@@]2(C)[C@H]1C[C@H]1OC(C3CC3)O[C@]12C(=O)CO (some centres unmarked) | Severe acute respiratory syndrome coronavirus 2 | viral replication, inhibitor | VeroE6/TMPRSS2 | 24 h | > 30 µM |
| COCCOC(=O)N1CCC2(CCCN(Cc3ccc(Cl)c(Cl)c3)C2)C1 (centres unmarked) | Mycobacterium tuberculosis | resazurin | rel knockout | 168 h, nutrient-starved | 64 µM |
| CCOP(=O)(CCOCn1cnc(C#N)c1C#N)OCC | Mammarenavirus lassaense | viral replication, inhibitor | Vero | 48 h | 8 µg/mL |
| O=C1c2c(O)ccc(O)c2C(=O)c2c(NCCNCCO)ccc(NCCNCCO)c21 | SARS-CoV-2 NLuc reporter | viral replication | Calu-3 | 16 h compound pretreatment | 0.016 µM |
| COCCOCCOCC1O[C@@H]2C[C@H]3[C@@H]4CCC5=CC(=O)C=C[C@]5(C)[C@H]4[C@@H](O)C[C@]3(C)[C@]2(C(=O)CO)O1 (some centres unmarked) | Severe acute respiratory syndrome coronavirus 2 | viral replication, inhibitor | VeroE6/TMPRSS2 | 24 h | > 30 µM |
| CN1CCN(C(=O)N[C@@H](Cc2ccccc2)C(=O)N[C@H](/C=C/S(=O)(=O)c2ccccc2)CCc2ccccc2)CC1 | Middle East respiratory syndrome-related coronavirus | pseudovirus entry | Vero | – | 0.046 µM |
| COC(=O)c1ncn(CCO)c1C(=O)OC | Severe acute respiratory syndrome coronavirus | viral replication | Vero | 48 h | 28 µg/mL |
| C[C@]12C=CC(=O)C=C1CC[C@@H]1[C@@H]2[C@@H](O)C[C@@]2(C)[C@H]1C[C@H]1OC(c3cccc(Cl)c3)O[C@]12C(=O)CO (some centres unmarked) | Severe acute respiratory syndrome coronavirus 2 | viral replication | VeroE6/TMPRSS2 | – | 8 µM |
| CC(C)[C@H](NC(=O)[C@H](Cc1ccccc1)NC(=O)[C@H](Cc1ccccc1)NC(=O)[C@H](CC(=O)O)NC(=O)[C@H](CC(=O)O)NC(=O)CNC(=O)[C@H](CCCCN)NC(=O)[C@H](CCCCN)NC(=O)[C@@H](N)Cc1c[nH]cn1)C(=O)N[C@@H](Cc1ccc(O)cc1)C(=O)N[C@@H](C)C(=O)N[C@@H](CC(=O)O)C(=O)N[C@@H](Cc1ccc(O)cc1)C(=O)O | Ebola virus | pseudovirus infection | – | pseudotyped virus | 21.7 µM |
| CC(C)CC(=O)OC1C=CC=CC(=O)OC2C(C)CC3C2(O)C(O)C2(CO)OC2C2C4OC5(c6ccccc6)OC(C(C)C23O5)C4(O)C(C)(O)CC2CCC1C2C (centres unmarked) | SARS-CoV-2 Delta spike | cell fusion | HeLa-ACE2 cells | – | ~0.001 µM |
| COC(=O)c1ncn(C2OC(COC(C)=O)C(OC(C)=O)C2OC(C)=O)c1C(=O)OC (centres unmarked) | Severe acute respiratory syndrome coronavirus | viral replication | Vero | 48 h | 40 µg/mL |
| COc1cccc2c1C(=O)c1c(O)c3c(c(O)c1C2=O)C[C@@](O)(C(=O)CO)C[C@@H]3O[C@H]1C[C@H](N)[C@@H](O)[C@H](C)O1 | SARS-CoV-2 NLuc reporter | viral replication | Calu-3 | 16 h compound pretreatment | 0.034 µM |
| NCCCC[C@H](N)C(=O)NCC(=O)N[C@@H](CC(=O)O)C(=O)N[C@@H](CC(=O)O)C(=O)N[C@@H](Cc1ccccc1)C(=O)N[C@@H](Cc1ccccc1)C(=O)N1CCC[C@H]1C(=O)N[C@@H](Cc1ccc(O)cc1)C(=O)N[C@@H](Cc1ccc(O)cc1)C(=O)N[C@@H](Cc1c[nH]cn1)C(=O)N[C@@H](CO)C(=O)O | Ebola virus | pseudovirus infection | – | pseudotyped virus | 47.5 µM |
| NC(=O)c1ncn(C2OC(CO)C(O)C2O)c1C(N)=O (centres unmarked) | Severe acute respiratory syndrome coronavirus | viral replication | Vero | 48 h | 26 µg/mL |

| Structure (SMILES) | organism | test | system | conditions | IC50 |
| --- | --- | --- | --- | --- | --- |
| O=C(O)CCCC1C2CCCN3CCCC(CN1Cc1ccc(Cl)c(Cl)c1)C23 (centres unmarked) | Ebola virus | viral entry | – | EBOV GP pseudotyped HIV | 78.6 µM |
| C[C@@H]1CCCN1CCc1cc2cc(-c3ccc(C#N)cc3)ccc2o1 | Naegleria fowleri | alamarBlue | ATCC 30215 | 48 h, trophozoites | 3.05 ± 0.2 µM |
| COc1cc(-c2oc3cc(O)cc(O)c3c(=O)c2O[C@@H]2O[C@H](CO)[C@@H](O)[C@H](OC(C)=O)[C@H]2O)ccc1O | influenza A virus | hemagglutination | A/chicken/FPV/Rostock/1934 (H7N1) | – | 47 ± 1.6 µM |
| O=c1[nH]c(=O)n([C@@H]2O[C@H](COCc3ccccc3)[C@@H](OCc3ccccc3)[C@H](OCc3ccccc3)[C@H]2I)cc1Cl | Japanese encephalitis virus | viral replication, inhibitor, ELISA | Vero | – | 6.41 µM |
| CC[C@@]1(O)C[C@H](O[C@H]2C[C@H](N(C)C)[C@H](O[C@H]3C[C@H](O)[C@H](O[C@H]4CCC(=O)[C@H](C)O4)[C@H](C)O3)[C@H](C)O2)c2c(cc3c(c2O)C(=O)c2c(O)cccc2C3=O)[C@H]1C(=O)OC | SARS-CoV-2 NLuc reporter | viral replication | Calu-3 | 16 h compound pretreatment | 0.173 µM |
| COc1cc(-c2oc3cc(O)cc(O)c3c(=O)c2O[C@@H]2O[C@H](CO)[C@@H](O)[C@H](O)[C@H]2OC(=O)c2cc(O)c(O)c(O)c2)ccc1O | influenza A virus | hemagglutination | A/Tern/South Africa/1/61 (H5N3) | – | 191.3 ± 1.54 µM |
| O=C(O)CC1C2CCCN3CCCC(CN1CCCc1ccc(Cl)cc1)C23 (centres unmarked) | Ebola virus | viral entry | – | EBOV GP pseudotyped HIV | > 200 µM |
| CC(=O)OCCOCn1cnc(C#N)c1C#N | Zaire ebolavirus | viral replication, inhibitor | Vero | 72 h | 52 µg/mL |
| O=C(O)CCCC1C2CCCN3CCCC(CN1S(=O)(=O)c1ccc(Cl)cc1)C23 (centres unmarked) | Ebola virus | viral entry | – | EBOV GP pseudotyped HIV | 30.2 µM |
| C[C@]12C=CC(=O)C=C1CC[C@@H]1[C@@H]2[C@@H](O)C[C@@]2(C)[C@H]1C[C@H]1OC(CCCCCCCCCN=[N+]=[N-])O[C@]12C(=O)CO (some centres unmarked) | Severe acute respiratory syndrome coronavirus 2 | viral replication, inhibitor | VeroE6/TMPRSS2 | 24 h | 7.1 µM |
| C(=N\Cc1cc(C/N=C/c2ccc[nH]2)cc(-c2cc(C/N=C/c3ccc[nH]3)cc(C/N=C/c3ccc[nH]3)c2)c1)/c1ccc[nH]1 | Middle East respiratory syndrome-related coronavirus | viral replication | – | – | ~20 µM |
| CC(C)(C)[Si](C)(C)OC[C@H]1O[C@@H](n2cc(F)c(=O)[nH]c2=O)[C@H](I)[C@@H](O[Si](C)(C)C(C)(C)C)[C@@H]1O[Si](C)(C)C(C)(C)C | Japanese encephalitis virus | viral replication, inhibitor, ELISA | Vero | – | 3.21 µM |
| COC(=O)CCCC1C2CCCN3CCCC(CN1C(=O)c1ccc(Cl)cc1)C23 (centres unmarked) | Ebola virus | viral entry | – | EBOV GP pseudotyped HIV | 88.2 µM |
| COc1cc(-c2oc3cc(O[C@@H]4O[C@@H](C)[C@H](O)[C@@H](O)[C@H]4O)cc(O)c3c(=O)c2O[C@@H]2O[C@H](CO[C@@H]3O[C@@H](C)[C@H](O)[C@@H](O)[C@H]3O)[C@@H](O)[C@H](OC(C)=O)[C@H]2O)ccc1O | influenza A virus | hemagglutination | A/chicken/FPV/Rostock/1934 (H7N1) | – | 97.4 ± 2.7 µM |
| N=C(N)NCCC[C@H](NC(=O)[C@@H](N)CO)C(=O)N[C@@H](Cc1ccc(O)cc1)C(=O)N[C@@H](Cc1ccc(O)cc1)C(=O)N1CCC[C@H]1C(=O)N[C@@H](Cc1ccccc1)C(=O)N[C@@H](Cc1ccccc1)C(=O)NCC(=O)N[C@@H](CC(=O)O)C(=O)N[C@@H](CO)C(=O)O | Ebola virus | pseudovirus infection | – | pseudotyped virus | 52.6 µM |
| COc1ccc(CN2CCN(c3nc(C)ccc3C(=O)OC(C)C)CC2)cc1Cl | Mycobacterium tuberculosis | resazurin | rel knockout | 168 h, nutrient-starved | 32 µM |
| O=[N+]([O-])c1ccc(-n2nc(-c3ccccc3)cc2-c2ccc(F)cc2)c([N+](=O)[O-])c1 | Japanese encephalitis virus | plaque formation | N2a | 72 h | ~5 µM |
| COC(=O)CCCC1C2CCCN3CCCC(CN1S(=O)(=O)c1ccc(Cl)cc1)C23 (centres unmarked) | Ebola virus | viral entry | – | EBOV GP pseudotyped HIV | 8.23 µM |
| COC(=O)c1ncn(C2CC(OC(=O)c3ccc(C)cc3)C(COC(=O)c3ccc(C)cc3)O2)c1C(=O)OC (centres unmarked) | Mammarenavirus lassaense | viral replication, inhibitor | Vero | 48 h | 2 µg/mL |
